Published values pooled from the literature.
Every numbered part comes from another study and shows a few of its results, in no order.

Sample 1 — method: universal PBM; form: double-stranded DNA, one strand shown; matrix: in vitro; tested at: 600 nM; direction: higher = stronger binding
Target: Sal-like protein 4, full length isoform A (SALL4, Homo sapiens, UniProt Q9UJQ4, residues 1-1053)
UniProt Q9UJQ4, sequence (whole entry, looked up): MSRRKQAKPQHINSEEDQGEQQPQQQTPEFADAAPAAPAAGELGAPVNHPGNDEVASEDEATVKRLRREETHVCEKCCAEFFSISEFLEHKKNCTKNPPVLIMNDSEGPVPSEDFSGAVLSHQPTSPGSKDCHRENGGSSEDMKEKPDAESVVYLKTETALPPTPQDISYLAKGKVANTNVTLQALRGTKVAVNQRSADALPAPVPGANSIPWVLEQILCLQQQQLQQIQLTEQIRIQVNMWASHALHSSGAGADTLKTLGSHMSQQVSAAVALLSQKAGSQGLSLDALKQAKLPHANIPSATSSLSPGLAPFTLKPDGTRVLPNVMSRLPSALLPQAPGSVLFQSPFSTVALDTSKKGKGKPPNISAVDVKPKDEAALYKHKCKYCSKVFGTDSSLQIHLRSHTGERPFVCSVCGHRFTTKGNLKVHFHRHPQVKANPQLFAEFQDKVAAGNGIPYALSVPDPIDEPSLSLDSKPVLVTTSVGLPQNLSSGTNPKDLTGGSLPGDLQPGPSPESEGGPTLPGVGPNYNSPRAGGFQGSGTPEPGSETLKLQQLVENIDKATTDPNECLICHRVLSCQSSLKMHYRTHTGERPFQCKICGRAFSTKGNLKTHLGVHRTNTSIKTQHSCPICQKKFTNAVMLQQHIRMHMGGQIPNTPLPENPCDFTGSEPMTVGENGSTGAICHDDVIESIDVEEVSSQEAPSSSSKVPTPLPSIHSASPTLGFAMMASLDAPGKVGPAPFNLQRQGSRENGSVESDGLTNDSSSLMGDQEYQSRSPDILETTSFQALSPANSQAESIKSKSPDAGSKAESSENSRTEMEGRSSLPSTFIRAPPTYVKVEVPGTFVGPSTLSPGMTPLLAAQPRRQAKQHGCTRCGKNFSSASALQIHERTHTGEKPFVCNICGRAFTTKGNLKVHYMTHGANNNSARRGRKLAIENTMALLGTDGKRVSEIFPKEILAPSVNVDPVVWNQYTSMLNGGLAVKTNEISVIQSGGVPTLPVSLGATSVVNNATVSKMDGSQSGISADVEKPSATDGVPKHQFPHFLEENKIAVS
Notes: 8-mer, flanks averaged, mean of replicates
`GGCTAGGA` gave an E-score of -0.105.
The E-score of `ACACACAG` is reported as -0.0389.
`ACGAGCTA` gave an E-score of -0.0231.
With `AGGTTCAT` the E-score was 0.0266.
`CGCTTACA` gave an E-score of -0.109.
The E-score of `CTAATTGA` is reported as 0.167.
With `CTTGGGAA` the E-score was -0.00965.
`AGCACATG` gave an E-score of -0.0971.
For `TCCCCACA`, the E-score was -0.169.
The E-score of `ACCTAGTA` is reported as -0.0304.
`AACCATTG` gave an E-score of 0.0893.
With `AGGATTAC` the E-score was 0.0696.
With `AAACGGCA` the E-score was -0.0161.
`CAAGTGTA` has an E-score of 0.103.
For `GAGAACCA`, the E-score was -0.152.
With `AAACATTA` the E-score was 0.299.
For `ATCTCGCA`, the E-score was 0.212.
For `AGTGTCTG`, the E-score was -0.0215.
With `CACGAGAG` the E-score was -0.115.
`AGCGCCAA` has an E-score of -0.0116.
The E-score of `GTAGGGTA` is reported as 0.0994.
With `TCGTCTCA` the E-score was -0.0641.
With `AAGGCTGT` the E-score was -0.173.
For `AATAAATA`, the E-score was 0.431.
For `AGGATTAA`, the E-score was 0.171.

Sample 2 — method: protein-binding microarray; form: double-stranded DNA, one strand shown; matrix: in vitro; tested at: 0.8 µM; notes: whole 60-bp probe, no competitor; direction: higher = stronger binding
Target: Centromere-binding protein 1, full length, N-terminal tag (CBF1, Saccharomyces cerevisiae, UniProt P17106, residues 1-351)
UniProt P17106, sequence (whole entry, looked up): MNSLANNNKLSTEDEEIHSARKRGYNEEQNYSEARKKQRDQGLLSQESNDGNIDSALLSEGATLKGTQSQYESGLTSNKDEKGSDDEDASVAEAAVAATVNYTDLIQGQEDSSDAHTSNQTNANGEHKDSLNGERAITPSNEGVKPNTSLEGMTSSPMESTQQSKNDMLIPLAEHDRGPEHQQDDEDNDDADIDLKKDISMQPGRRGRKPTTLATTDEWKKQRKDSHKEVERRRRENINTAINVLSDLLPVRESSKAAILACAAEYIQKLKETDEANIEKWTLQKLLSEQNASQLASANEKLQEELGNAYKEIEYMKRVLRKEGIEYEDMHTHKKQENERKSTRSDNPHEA
For `CCTAACTACTATAATCACACTGAATAGCTTCGTACAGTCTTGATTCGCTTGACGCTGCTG`, the fluorescence intensity was 527 a.u.
`CTATTAAAAAAAAATCACGTGGTGCAAAAAAAATTCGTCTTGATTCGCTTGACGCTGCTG` gave a fluorescence intensity of 16500 a.u.
`CTAATATGTTTTTCATACGTGATTTGAAGTTTTTTCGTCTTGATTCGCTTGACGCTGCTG` gave a fluorescence intensity of 571 a.u.
`TGTACGAAGCTATGACACGTGTGTATAGTAGTTAGGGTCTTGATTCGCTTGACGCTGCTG` gave a fluorescence intensity of 4260 a.u.
The fluorescence intensity of `CTAAATGCCGCAGATCACGTGGTAAAGAAAAGATTCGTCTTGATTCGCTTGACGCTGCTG` is reported as 17900 a.u.
For `CTAGCTTGCAGAAGTCACCTTCTCTTTTCCGTTTTCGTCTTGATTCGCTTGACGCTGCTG`, the fluorescence intensity was 522 a.u.
The fluorescence intensity of `GAAAAACATCTGCAGCACGTGCTTGTTATGCTTTAGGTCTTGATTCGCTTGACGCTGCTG` is reported as 12900 a.u.
`GAAAGAAAGAGCAGTGATGTCAGCGGTAATGGCTAGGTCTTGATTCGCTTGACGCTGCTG` has a fluorescence intensity of 477 a.u.
With `GAAGTACTGCTGTATCTGATGCCGTGAACGAGATAGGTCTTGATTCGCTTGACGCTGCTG` the fluorescence intensity was 605 a.u.
The fluorescence intensity of `CTATCAGATGTGGTGATCATGAGAGCGAATTATTTCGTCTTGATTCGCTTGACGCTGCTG` is reported as 721 a.u.
With `TGTACGAAGCTATGTGACTAGTCTATAGTAGTTAGGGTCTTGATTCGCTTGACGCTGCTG` the fluorescence intensity was 538 a.u.
With `GAAGTAATAGTGGATGACGTGAATAGCAACAAATAGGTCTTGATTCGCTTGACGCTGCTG` the fluorescence intensity was 610 a.u.
`GAATCAGGTGAATCATGTGGGACTGAAGAGAGGTAGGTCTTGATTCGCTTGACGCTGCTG` has a fluorescence intensity of 879 a.u.
The fluorescence intensity of `GAAGCTTTACAGTGACACCAAACATAAGGAGGGTAGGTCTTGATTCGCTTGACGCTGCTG` is reported as 533 a.u.
`GAACACAATAACAGCATCATCACTATAAAGAAATAGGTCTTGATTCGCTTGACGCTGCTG` gave a fluorescence intensity of 607 a.u.
`GAAAAACGGGCCTCCCACGTGACGTAAAGTAGGTAGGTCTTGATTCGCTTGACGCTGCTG` gave a fluorescence intensity of 12700 a.u.
The fluorescence intensity of `GAATTACAGTGGCCTCCGGTCACCTCGAGTTAGTAGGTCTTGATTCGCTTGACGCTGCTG` is reported as 471 a.u.
With `CTAGCAGTTGGCCAGCACGTTCAGAACCCCGTATTCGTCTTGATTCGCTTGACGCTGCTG` the fluorescence intensity was 518 a.u.
With `CTAAACGGCATCTCTCACCTGATTGTTCTCAAGTTCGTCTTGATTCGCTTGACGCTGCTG` the fluorescence intensity was 624 a.u.
`CTAATTCTTATACATGTGACTAACCGATATTACTTCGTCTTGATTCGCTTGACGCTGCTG` gave a fluorescence intensity of 4500 a.u.

Sample 3 — method: protein-binding microarray; form: double-stranded DNA, one strand shown; matrix: in vitro; tested at: 2200 nM top; notes: 60-bp whole probe; with: salmon DNA 0.4 mg/ml; baseline: random background probes; direction: higher = stronger binding; shared flanks, not repeated: GCCTAGCAC … GTCTTGATTCGCTTGACGCTGCTG
Target: Interferon regulatory factor 7, full length, phosphomimetic (IRF7, Homo sapiens, UniProt Q92985, residues 1-503, S471D/S472D/S475D/S476D/S477D/S483D/S484D/S487D)
Residues (chain): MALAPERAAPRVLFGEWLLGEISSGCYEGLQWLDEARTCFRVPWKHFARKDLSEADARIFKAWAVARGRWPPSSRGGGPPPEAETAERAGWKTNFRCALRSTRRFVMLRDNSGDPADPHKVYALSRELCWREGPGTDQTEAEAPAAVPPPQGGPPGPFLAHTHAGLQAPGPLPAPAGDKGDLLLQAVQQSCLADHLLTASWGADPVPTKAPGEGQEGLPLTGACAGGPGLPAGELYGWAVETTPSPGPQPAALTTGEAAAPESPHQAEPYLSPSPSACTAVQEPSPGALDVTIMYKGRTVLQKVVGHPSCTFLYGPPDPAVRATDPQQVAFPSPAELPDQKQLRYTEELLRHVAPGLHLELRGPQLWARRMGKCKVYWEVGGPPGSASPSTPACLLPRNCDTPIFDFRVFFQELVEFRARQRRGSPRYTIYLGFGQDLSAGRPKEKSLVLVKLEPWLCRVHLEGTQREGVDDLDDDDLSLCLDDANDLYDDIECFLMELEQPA
`GACGGTCTCGGTCTCAGGACGTGCTAG`: “fitted relative affinity” -0.00583 z-score.
For `GGTTTTCTGGTTCCCATTCCGTGCTAG`, “fitted relative affinity” read 6.89 z-score.
Under “fitted relative affinity”, `GACGGTCTCCTACTGCTCACGTGCTAG` is recorded as 0.839 z-score.
`GACAGTATCCTTCTCCTGACGTGCTAG` — result for “fitted relative affinity”: 1.4 z-score.
For `TTAGATCTCAGTTTCGATGAGTGCTAG`, “fitted relative affinity” read 1.84 z-score.
Under “fitted relative affinity”, `TTAGCACTGCTTCTCCTTTAGTGCTAG` is recorded as 1.09 z-score.
`GTCGATTTCGGGTATCGAGACGTGCTA` — result for “fitted relative affinity”: 3.42 z-score.
`TTAGGTTTCGGTTCCGGATAGTGCTAG` — result for “fitted relative affinity”: 11.2 z-score.
Under “fitted relative affinity”, `GACGGTTTTGGACTGGGGACGTGCTAG` is recorded as 0.593 z-score.
`GACGATTTCAGAATCGAGACGTGCTAG`: “fitted relative affinity” 0.727 z-score.
`GACGCTATCGACTATCGGGACGTGCTA`: “fitted relative affinity” 0.278 z-score.
Under “fitted relative affinity”, `GACGGTCTGGGTTTCGGGACGTGCTAG` is recorded as 1.3 z-score.
For `GACCGTTTCGGGACTGGGGACGTGCTA`, “fitted relative affinity” read 2.35 z-score.
Under “fitted relative affinity”, `GACGAACTGGGTTTCGGGACGTGCTAG` is recorded as 1.83 z-score.
`TTGGGTTTCGGTTTCGGTTAGTGCTAG`: “fitted relative affinity” 15.1 z-score.
For `TCCATTTTGGTTTTCATTATGTGCTAG`, “fitted relative affinity” read 3.43 z-score.
For `GACGGTTTCGACATTCGGGACGTGCTA`, “fitted relative affinity” read 4.39 z-score.
For `GACGATATCTGTCTCGAGACGTGCTAG`, “fitted relative affinity” read 0.668 z-score.
`GGCGGACTGGACTTTCGGGACGTGCTA`: “fitted relative affinity” 1.59 z-score.
`TACGGACTGCTTTTCCTGACGTGCTAG` — result for “fitted relative affinity”: 0.873 z-score.
`GCTTTTTCCCCCCTCACGCAGTGCTAG` — result for “fitted relative affinity”: 1.46 z-score.
Under “fitted relative affinity”, `GACGATTTCGGGTTTCGAAACGTGCTA` is recorded as 5.21 z-score.

Sample 4 — method: protein-binding microarray; form: double-stranded DNA, one strand shown; matrix: in vitro; tested at: not given; direction: higher = stronger binding
Target: Transcriptional repressor CTCF (CTCF, Homo sapiens, UniProt P49711, residues 1-727, full length assumed)
UniProt P49711, sequence (whole entry, looked up): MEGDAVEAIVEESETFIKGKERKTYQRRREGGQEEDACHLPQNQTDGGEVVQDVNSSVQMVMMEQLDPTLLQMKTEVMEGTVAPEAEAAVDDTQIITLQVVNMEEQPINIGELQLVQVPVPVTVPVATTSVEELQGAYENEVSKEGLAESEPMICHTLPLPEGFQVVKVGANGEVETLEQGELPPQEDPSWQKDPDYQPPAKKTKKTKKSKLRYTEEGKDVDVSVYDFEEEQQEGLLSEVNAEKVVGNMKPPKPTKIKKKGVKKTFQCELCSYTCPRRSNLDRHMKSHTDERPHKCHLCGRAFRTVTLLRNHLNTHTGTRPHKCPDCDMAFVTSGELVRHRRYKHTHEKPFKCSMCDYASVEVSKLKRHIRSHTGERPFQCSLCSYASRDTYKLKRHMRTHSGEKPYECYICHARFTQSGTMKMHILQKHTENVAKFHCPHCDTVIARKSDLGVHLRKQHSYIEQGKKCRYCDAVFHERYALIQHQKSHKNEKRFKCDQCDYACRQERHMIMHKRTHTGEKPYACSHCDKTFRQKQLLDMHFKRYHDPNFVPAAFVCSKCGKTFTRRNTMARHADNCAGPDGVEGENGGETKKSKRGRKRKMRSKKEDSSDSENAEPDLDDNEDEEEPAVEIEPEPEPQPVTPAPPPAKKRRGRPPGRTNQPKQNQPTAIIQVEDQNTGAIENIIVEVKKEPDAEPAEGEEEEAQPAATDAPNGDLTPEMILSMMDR
Notes: k-mer, scored over probes, only values ≥0.25
`ACAAATGT` has an E-score of 0.286.
With `ATACGCAT` the E-score was 0.292.
`CATGCATG` has an E-score of 0.281.
For `AGTGAGTA`, the E-score was 0.277.
For `ACATAATA`, the E-score was 0.363.
The E-score of `TGATAACA` is reported as 0.282.
`TATTACAA` gave an E-score of 0.322.
`AACGATAT` has an E-score of 0.257.
With `CTTCATTA` the E-score was 0.284.
With `GAGGCGCA` the E-score was 0.294.
For `ATTTAATA`, the E-score was 0.344.
For `TAACATTA`, the E-score was 0.296.
With `GTTTTGTA` the E-score was 0.3.
For `GCTGATTA`, the E-score was 0.342.
`GATTACGC` has an E-score of 0.287.
`ACGATAAC` gave an E-score of 0.319.
For `CAAATATA`, the E-score was 0.292.

For quick reference, copied from above (sample 4):
For `CAAATATA`, the E-score was 0.292.
For `AGTGAGTA`, the E-score was 0.277.
For `GCTGATTA`, the E-score was 0.342.
For `TAACATTA`, the E-score was 0.296.
`ACAAATGT` has an E-score of 0.286.
`ACGATAAC` gave an E-score of 0.319.
`AACGATAT` has an E-score of 0.257.
With `GAGGCGCA` the E-score was 0.294.
For `ATTTAATA`, the E-score was 0.344.
With `ATACGCAT` the E-score was 0.292.
With `CTTCATTA` the E-score was 0.284.
